# Assay results collected from several papers.
# Numbered parts are unrelated; each lists some results of a single study. Positions count from the first letter of the parent shown.
# UniProt O94768, sequence (whole entry, looked up): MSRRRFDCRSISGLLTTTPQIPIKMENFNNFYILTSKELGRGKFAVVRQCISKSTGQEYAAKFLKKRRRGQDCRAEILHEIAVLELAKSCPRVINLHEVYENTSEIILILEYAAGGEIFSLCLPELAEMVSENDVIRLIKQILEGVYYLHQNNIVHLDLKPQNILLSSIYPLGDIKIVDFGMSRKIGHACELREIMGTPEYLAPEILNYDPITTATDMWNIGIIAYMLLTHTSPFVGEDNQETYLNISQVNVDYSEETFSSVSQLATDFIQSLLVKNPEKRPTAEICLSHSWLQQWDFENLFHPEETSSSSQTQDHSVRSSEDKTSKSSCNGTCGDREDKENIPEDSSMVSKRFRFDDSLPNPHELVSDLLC
# UniProt Q00532, sequence (whole entry, looked up): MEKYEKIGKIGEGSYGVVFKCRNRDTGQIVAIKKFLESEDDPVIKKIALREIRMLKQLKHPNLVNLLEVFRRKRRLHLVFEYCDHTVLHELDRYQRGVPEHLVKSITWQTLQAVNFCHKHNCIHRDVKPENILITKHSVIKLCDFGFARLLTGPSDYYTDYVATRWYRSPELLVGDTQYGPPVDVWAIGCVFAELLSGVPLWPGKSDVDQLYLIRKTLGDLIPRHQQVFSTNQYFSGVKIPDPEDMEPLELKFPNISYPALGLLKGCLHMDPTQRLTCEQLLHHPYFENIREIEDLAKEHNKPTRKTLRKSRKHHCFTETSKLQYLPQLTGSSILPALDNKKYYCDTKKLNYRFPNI
# UniProt Q9BUB5, sequence (whole entry, looked up): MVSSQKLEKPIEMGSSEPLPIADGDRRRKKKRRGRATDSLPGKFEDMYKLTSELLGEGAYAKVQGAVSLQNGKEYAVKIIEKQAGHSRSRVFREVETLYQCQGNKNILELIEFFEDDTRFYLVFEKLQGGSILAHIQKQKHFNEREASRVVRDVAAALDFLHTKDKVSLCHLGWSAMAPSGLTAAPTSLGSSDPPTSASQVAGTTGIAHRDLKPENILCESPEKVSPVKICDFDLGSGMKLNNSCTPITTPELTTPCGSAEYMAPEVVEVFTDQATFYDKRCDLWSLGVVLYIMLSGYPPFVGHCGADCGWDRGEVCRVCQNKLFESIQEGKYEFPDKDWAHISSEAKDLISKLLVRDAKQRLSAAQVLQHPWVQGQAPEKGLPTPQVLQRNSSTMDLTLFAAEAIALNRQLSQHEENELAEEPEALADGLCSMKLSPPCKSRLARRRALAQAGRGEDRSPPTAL
# UniProt P30291, sequence (whole entry, looked up): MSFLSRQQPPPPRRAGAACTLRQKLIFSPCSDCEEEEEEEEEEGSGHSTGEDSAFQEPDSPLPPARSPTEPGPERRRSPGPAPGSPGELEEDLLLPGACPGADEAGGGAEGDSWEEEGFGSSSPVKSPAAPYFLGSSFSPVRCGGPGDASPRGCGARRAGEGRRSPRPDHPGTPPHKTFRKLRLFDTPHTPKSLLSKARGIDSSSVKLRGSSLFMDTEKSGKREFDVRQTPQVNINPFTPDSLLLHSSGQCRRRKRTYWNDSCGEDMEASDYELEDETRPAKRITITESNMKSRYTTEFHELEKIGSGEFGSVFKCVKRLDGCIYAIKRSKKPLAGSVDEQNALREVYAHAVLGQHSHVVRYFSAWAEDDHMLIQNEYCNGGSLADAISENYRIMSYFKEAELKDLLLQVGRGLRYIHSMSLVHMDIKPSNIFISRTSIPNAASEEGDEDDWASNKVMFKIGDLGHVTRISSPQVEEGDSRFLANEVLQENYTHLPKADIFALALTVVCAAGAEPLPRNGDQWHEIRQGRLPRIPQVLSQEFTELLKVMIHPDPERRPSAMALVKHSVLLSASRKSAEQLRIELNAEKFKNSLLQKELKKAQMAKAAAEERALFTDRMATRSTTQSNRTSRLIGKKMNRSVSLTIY
# UniProt Q09013, sequence (whole entry, looked up): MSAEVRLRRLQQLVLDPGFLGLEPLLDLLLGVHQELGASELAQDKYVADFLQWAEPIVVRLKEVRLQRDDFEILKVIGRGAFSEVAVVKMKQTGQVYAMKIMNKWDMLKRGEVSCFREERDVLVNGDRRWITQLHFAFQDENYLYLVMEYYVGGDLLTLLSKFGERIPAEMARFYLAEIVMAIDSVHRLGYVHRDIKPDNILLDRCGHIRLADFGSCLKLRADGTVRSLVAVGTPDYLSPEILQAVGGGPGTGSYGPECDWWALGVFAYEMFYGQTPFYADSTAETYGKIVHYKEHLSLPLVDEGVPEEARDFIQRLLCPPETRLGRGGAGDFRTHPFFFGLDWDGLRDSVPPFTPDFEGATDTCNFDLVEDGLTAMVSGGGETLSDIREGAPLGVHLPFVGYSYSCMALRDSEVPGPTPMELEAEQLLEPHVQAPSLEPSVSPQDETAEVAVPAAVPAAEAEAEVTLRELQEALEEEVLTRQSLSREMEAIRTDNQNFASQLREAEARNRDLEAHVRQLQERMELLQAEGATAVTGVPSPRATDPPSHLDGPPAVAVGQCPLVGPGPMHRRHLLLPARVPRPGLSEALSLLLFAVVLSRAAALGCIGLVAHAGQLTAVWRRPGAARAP
# UniProt P15056, sequence (whole entry, unmodified, looked up): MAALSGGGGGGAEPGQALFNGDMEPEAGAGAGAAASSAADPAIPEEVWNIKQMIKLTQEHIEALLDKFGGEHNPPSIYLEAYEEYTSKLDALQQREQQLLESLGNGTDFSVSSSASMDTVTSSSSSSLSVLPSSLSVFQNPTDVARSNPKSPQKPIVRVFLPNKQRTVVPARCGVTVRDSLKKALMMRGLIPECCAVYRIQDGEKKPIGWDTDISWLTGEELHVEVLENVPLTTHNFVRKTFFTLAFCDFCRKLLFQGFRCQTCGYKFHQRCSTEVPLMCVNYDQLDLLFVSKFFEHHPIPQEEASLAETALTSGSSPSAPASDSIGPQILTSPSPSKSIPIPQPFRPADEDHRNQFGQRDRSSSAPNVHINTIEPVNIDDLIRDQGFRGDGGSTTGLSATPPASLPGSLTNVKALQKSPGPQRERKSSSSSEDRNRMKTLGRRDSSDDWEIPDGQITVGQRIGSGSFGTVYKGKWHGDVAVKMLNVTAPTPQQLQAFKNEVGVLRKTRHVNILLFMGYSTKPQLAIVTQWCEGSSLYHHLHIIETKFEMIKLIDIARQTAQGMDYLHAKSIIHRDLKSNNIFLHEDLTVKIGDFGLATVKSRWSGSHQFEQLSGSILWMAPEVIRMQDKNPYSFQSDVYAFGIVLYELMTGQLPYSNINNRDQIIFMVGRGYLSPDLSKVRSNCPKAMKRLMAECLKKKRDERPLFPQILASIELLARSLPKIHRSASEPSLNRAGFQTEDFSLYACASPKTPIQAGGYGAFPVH
# UniProt P15735, sequence (whole entry, looked up): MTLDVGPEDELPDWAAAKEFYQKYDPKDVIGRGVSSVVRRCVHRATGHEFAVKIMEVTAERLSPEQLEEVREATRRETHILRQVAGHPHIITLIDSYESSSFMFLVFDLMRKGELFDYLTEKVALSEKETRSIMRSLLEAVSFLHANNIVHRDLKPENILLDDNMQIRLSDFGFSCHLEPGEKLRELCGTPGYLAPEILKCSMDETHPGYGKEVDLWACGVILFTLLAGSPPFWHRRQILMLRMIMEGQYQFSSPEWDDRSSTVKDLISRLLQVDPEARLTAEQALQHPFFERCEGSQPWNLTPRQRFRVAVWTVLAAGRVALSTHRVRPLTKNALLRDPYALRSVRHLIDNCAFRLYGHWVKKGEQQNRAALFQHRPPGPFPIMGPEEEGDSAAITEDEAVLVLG

# Sample 1 — target: CRIPT, C-terminal peptide; method: DHFR complementation, deep sequencing; medium: yeast; baseline: wild type; direction: higher = weaker binding
# Setting: single substitutions, model-inferred values
# Starting sequence: ERBIN, PDZ domain 1 (human); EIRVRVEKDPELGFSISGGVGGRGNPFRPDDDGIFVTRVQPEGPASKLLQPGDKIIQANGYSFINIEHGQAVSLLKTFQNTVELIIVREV; partner TKNYKQTSV
Change,binding free energy change [kcal/mol]
H68F,1.04
G18Y,1.05
G19V,1.01
G60V,0.239
G43Q,0.603
I2F,-0.0287
G52L,1.02
I64D,-0.0473

# Sample 2 — method: protein-binding microarray; molecule type: double-stranded DNA, one strand shown; medium: in vitro; tested at: 940 nM top; setting: 60-bp whole probe; with: salmon DNA 0.4 mg/ml; baseline: random background probes; direction: higher = stronger binding; constant ends, left off below: GCCTAGCAC … GTCTTGATTCGCTTGACGCTGCTG
# Target: Interferon regulatory factor 5, full length, phosphomimetic (IRF5, Homo sapiens, UniProt Q13568-2, residues 1-514, S451D/S453D/S456D/S462D)
Strand,fitted relative affinity [z-score]
TTAGGTATCGGGTATCGGGTAGTGCTA,6.42
TTAGATTTCAGTACCGATTAGTGCTAG,0.746
CACATCTGCTGTGGGAGCACGTGCTAG,-0.536
AGTAATGACCTTCTCAGGAGGTGCTAG,-0.191
GACTGTTCCCTTTTCCTGACGTGCTAG,1.33
TTAGCTTTCAGTTTCGATTAGTGCTAG,9.55
CTTGCTTTCCAATTCTCTTTGTGCTAG,0.758
TTATGTATCGACTTTCGGTTAGTGCTA,4.19

# Sample 3 — method: competition with immobilised ligand; tested at: 0.1 µM
# SMILES: CS(=O)(=O)N1CCCC(NC(=O)[C@H](CCC2CCCCC2)NC(=O)c2ccc(CNc3ncnc4c3nnn4-c3ccccc3)cc2)C1 (stereo partly shown)
target,observed,remaining binding [%]
"CDKL1 (Homo sapiens, UniProt Q00532)",cell-free assay,71
"CLK2 (Homo sapiens, UniProt P49760)",cell-free assay,100
"PHKG2 (Homo sapiens, UniProt P15735)",cell-free assay,100
"Tyrosine-protein kinase ABL1, phosphorylated (ABL1, Homo sapiens, UniProt P00519, E255K)",binding,87
"STK17B (Homo sapiens, UniProt O94768)",cell-free assay,100
"CAMKK2 (Homo sapiens, UniProt Q96RR4)",cell-free assay,78
"GAK (Homo sapiens, UniProt O14976)",cell-free assay,95
"FER (Homo sapiens, UniProt P16591)",cell-free assay,86
"ERBB3 (Homo sapiens, UniProt P21860)",cell-free assay,100
"DMPK (Homo sapiens, UniProt Q09013)",cell-free assay,100
"Tyrosine-protein kinase ABL1, non-phosphorylated (ABL1, Homo sapiens, UniProt P00519, T315I)",cell-free assay,100
"WEE1 (Homo sapiens, UniProt P30291)",cell-free assay,72
"BRAF (Homo sapiens, UniProt P15056, V600E)",cell-free assay,100
"MKNK1 (Homo sapiens, UniProt Q9BUB5)",cell-free assay,86

# Sample 4 — observed: enzyme activity; mode: inhibitor; tested at: 0.5 µM; baseline: control
# Target: Rho-associated protein kinase 2 (ROCK2, Homo sapiens, UniProt O75116)
# UniProt O75116, sequence (whole entry, looked up): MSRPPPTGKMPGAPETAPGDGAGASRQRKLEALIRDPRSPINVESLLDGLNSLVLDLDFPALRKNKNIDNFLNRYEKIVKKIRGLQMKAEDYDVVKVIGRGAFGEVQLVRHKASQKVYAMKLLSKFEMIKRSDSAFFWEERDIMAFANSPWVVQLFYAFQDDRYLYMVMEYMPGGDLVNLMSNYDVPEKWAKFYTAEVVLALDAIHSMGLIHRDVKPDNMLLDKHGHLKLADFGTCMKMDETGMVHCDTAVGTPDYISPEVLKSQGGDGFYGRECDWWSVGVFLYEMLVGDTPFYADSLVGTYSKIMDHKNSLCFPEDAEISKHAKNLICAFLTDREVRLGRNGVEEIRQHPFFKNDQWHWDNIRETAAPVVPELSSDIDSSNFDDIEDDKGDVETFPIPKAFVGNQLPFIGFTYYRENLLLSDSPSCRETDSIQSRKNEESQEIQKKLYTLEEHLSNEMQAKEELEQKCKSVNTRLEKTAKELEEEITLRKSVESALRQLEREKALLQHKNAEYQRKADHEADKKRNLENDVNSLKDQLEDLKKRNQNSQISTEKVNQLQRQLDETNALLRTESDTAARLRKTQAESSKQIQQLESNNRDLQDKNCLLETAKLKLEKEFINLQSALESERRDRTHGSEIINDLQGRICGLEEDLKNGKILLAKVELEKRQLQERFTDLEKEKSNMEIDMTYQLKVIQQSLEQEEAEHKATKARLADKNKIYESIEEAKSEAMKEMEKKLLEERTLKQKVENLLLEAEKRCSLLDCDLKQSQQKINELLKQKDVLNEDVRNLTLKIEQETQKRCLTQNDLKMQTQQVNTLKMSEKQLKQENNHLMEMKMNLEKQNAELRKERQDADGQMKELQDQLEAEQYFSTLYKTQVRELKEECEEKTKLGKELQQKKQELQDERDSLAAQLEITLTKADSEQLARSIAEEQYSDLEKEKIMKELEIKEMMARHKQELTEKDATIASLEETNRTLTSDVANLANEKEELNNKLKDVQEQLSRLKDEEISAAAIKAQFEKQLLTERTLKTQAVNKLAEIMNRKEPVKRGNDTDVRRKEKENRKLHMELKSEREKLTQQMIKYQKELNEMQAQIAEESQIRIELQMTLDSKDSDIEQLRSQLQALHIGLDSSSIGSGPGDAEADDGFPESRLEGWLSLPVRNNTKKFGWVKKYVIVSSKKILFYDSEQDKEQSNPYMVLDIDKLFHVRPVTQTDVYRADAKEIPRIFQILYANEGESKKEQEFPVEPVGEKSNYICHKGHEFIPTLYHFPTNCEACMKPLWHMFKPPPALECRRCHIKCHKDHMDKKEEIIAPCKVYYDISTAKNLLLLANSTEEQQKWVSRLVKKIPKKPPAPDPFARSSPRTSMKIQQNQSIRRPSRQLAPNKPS
Structure (SMILES),remaining activity [%]
Nc1[nH]nc2nc3ccccc3nc12,93.3
C#Cc1cccc(Nc2ncnc3cc(OCCOC)c(OCCOC)cc23)c1,91
Nc1ncnc2n[nH]c(Nc3ccc(F)cc3)c12,92.1
CCOC(=O)c1c(C)[nH]c(/C=C2\C(=O)Nc3ccccc32)c1C,94.3
